Measurements from different studies.
Every numbered part comes from another study and shows a few of its results, in no order.

Set 1 — cell line: normal-adjacent organoid sample E; technique: CellTiter-Glo; concentration: 0.1 µM; notes: replicate mean; relative to: DMSO
| SMILES | viability |
| --- | --- |
| CNC(=O)c1ccc(Nc2ncc(C(F)(F)F)c(NCc3nccnc3N(C)S(C)(=O)=O)n2)cc1 | 80.8% |
| Nc1c(C(=O)NCc2ccc(C(=O)NCCCC3CCCCC3)cc2)cnn1-c1ccccc1 | 122% |
| CN(C)C(=O)Cn1cc(-c2nc([C@@](C)(c3ccc(-c4cnc(N)nc4)cc3)C3CC3)no2)cn1 | 102% |
| O=C(Nc1ccc(Oc2ccc(F)cc2)cc1)N1CCc2ncccc2[C@H]1c1ccc(F)cc1 | 134% |
| COc1cc(N[C@@H]2CCCC[C@]2(O)C(F)(F)F)ccc1F | 120% |
| O=C(NCc1ncc(C(F)(F)F)cc1Cl)c1ccc2c(c1)C1(CCS(=O)(=O)CC1)[C@H](C1CC1)N2S(=O)(=O)c1ccc(F)cc1 | 91.4% |
| CCOC(=O)c1cc2cc(-c3cc(C(=O)NCc4ccc(C(=O)O)cc4)nn3C)ccc2[nH]1 | 104% |
| CS(=O)(=O)NCC[C@H](NC(=O)c1cncc2c1cnn2-c1ccc(F)cc1)c1ccnc(S(C)(=O)=O)c1 | 153% |

Set 2 — action: inhibitor; concentration: 10 µM; relative to: control
Target: Diamine acetyltransferase 1 (Homo sapiens, UniProt P21673)
Target sequence (P21673 1-171): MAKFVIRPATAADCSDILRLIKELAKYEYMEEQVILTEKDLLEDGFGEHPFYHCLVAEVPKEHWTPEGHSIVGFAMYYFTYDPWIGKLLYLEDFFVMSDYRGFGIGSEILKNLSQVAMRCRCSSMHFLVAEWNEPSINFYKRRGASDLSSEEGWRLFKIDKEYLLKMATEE
| SMILES | remaining activity [%] |
| --- | --- |
| CC(C)(O)[C@@H](O)COc1c2ccoc2cc2oc(=O)ccc12 | 81.5 |
| C/C=C/c1ccc(OC)c(OC)c1 | 91.8 |
| CC(C)C12CCC(C)(CC1)O2 | 103 |
| Cc1cc(O)c(C)c2c1O[C@](C)(CCC[C@H](C)CCC[C@H](C)CCCC(C)C)CC2 | 102 |
| COc1ccc(-c2oc3cc(OC)c(OC)c(O)c3c(=O)c2OC)cc1OC | 96 |
| O=C(O)c1cccc(O)c1 | 84.5 |
| N[C@@H](CSSC[C@H](N)C(=O)O)C(=O)O | 117 |

Set 3 — Compound: O=C1NC(=O)/C(=C/c2ccc3nccnc3c2)S1; read-out: enzyme activity; action: inhibitor; concentration: 0.5 µM; relative to: control
| target | remaining activity |
| --- | --- |
| Casein kinase I isoform epsilon (CSNK1E, Homo sapiens, UniProt P49674) | 92.3% |
| Cyclin-dependent kinase 2, with cyclin E (CDK2, Homo sapiens, UniProt P24941) | 91.8% |
| Dual specificity tyrosine-phosphorylation-regulated kinase 1A (DYRK1A, Homo sapiens, UniProt Q13627) | 21.8% |
| Ephrin type-B receptor 3 (EPHB3, Homo sapiens, UniProt P54753) | 94.5% |
| Protein kinase C theta type (PRKCQ, Homo sapiens, UniProt Q04759) | 92.8% |
| Serine/threonine-protein kinase SIK2 (SIK2, Homo sapiens, UniProt Q9H0K1) | 102% |
| Cyclin-dependent kinase 5, with p35 (CDK5, Homo sapiens, UniProt Q00535) | 97.9% |
| Tyrosine-protein kinase Fes/Fps (FES, Homo sapiens, UniProt P07332) | 96.4% |
| SRSF protein kinase 1 (SRPK1, Homo sapiens, UniProt Q96SB4) | 110% |
| Ribosomal protein S6 kinase beta-2 (RPS6KB2, Homo sapiens, UniProt Q9UBS0) | 94.7% |
| Serine/threonine-protein kinase PAK 4 (PAK4, Homo sapiens, UniProt O96013) | 88.5% |
| Dual specificity protein kinase CLK1 (CLK1, Homo sapiens, UniProt P49759) | 80.1% |
| Receptor tyrosine-protein kinase erbB-2 (ERBB2, Homo sapiens, UniProt P04626) | 107% |
| Serine/threonine-protein kinase PAK 1 (PAK1, Homo sapiens, UniProt Q13153) | 96% |
| Insulin-like growth factor 1 receptor (IGF1R, Homo sapiens, UniProt P08069) | 92% |
| Mitogen-activated protein kinase kinase kinase 20 (MAP3K20, Homo sapiens, UniProt Q9NYL2) | 93.6% |
| Serine/threonine-protein kinase BRSK2 (BRSK2, Homo sapiens, UniProt Q8IWQ3) | 90.9% |
| Serine/threonine-protein kinase pim-1 (PIM1, Homo sapiens, UniProt P11309) | 61.7% |
| Tyrosine-protein kinase Tec (TEC, Homo sapiens, UniProt P42680) | 117% |
| Protein kinase C zeta type (PRKCZ, Homo sapiens, UniProt Q05513) | 103% |
| Maternal embryonic leucine zipper kinase (MELK, Homo sapiens, UniProt Q14680) | 90.7% |
| Calcium/calmodulin-dependent protein kinase kinase 1 (CAMKK1, Homo sapiens, UniProt Q8N5S9) | 81.8% |
| Tyrosine-protein kinase JAK2 (JAK2, Homo sapiens, UniProt O60674) | 97.4% |
| Serine/threonine-protein kinase MARK1 (MARK1, Homo sapiens, UniProt Q9P0L2) | 96.2% |
| Ephrin type-A receptor 2 (EPHA2, Homo sapiens, UniProt P29317) | 99.9% |

Set 4 — Compound: CCN(c1nc(N)c(C(=O)N=C(N)N)nc1Cl)C(C)C; read-out: β-arrestin recruitment; action: agonist; technique: PRESTO-Tango; concentration: 10 µM; relative to: untreated
| target | fold over basal |
| --- | --- |
| Free fatty acid receptor 3 (FFAR3, Homo sapiens, UniProt O14843) | 0.88 fold |
| Neuromedin-U receptor 2 (NMUR2, Homo sapiens, UniProt Q9GZQ4) | 0.72 |
| fMet-Leu-Phe receptor (FPR1, Homo sapiens, UniProt P21462) | 1.33 fold |
| Parathyroid hormone/parathyroid hormone-related peptide receptor (PTH1R, Homo sapiens, UniProt Q03431) | 0.68 |
| C5a anaphylatoxin chemotactic receptor 1 (C5AR1, Homo sapiens, UniProt P21730) | 0.95 |
| Type-1 angiotensin II receptor (AGTR1, Homo sapiens, UniProt P30556) | 0.72 |

Set 5 — host: human; medium: microsomes or S9; concentration: 2 µM; time: 0.5 h
| SMILES | remaining compound |
| --- | --- |
| O=C(NCC1COc2ccccc2O1)c1c(-c2cncnc2)cc(=O)n2c1CCCC2 (centres unmarked) | 73% |
| CCN(CC)C(=O)c1nc2cc(-c3ccc(C#N)cc3)sc2c(=O)[nH]1 | 77.1% |
| COC(=O)c1sc2ncn(CC(C)=O)c(=O)c2c1C | 21.5% |
| CCOC(=O)N1CCN(Cc2nc(N)nc(Nc3ccc(F)cc3)n2)CC1 | > 100% |
| CC(C)(C)OC(=O)NCCNC(=O)Cc1cc(=O)oc2cc(O)ccc12 | > 99% |
| CC(NS(C)(=O)=O)c1nnc(N2CC3(CCC3)c3ccccc32)n1C (centres unmarked) | 84% |
| Cc1ccc(N2CCCS2(=O)=O)cc1NS(=O)(=O)CC12CCC(CC1=O)C2(C)C (centres unmarked) | 35.4% |
